Results collected from several papers.
Every numbered part comes from another study and shows a few of its results, in no order.
Sequence of UniProt P60842 (whole entry, looked up): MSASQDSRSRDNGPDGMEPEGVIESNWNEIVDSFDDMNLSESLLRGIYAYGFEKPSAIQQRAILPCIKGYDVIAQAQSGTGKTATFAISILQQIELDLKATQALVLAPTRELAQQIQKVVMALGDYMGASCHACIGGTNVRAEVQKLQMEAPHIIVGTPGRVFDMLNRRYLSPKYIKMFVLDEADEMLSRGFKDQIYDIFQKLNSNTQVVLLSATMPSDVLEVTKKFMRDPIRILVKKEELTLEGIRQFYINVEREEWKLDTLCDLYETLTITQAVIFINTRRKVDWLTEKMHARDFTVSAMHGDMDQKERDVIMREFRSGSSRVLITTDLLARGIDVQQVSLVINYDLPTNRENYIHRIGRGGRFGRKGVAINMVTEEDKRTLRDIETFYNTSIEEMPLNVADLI
Sequence of UniProt O00571 (132-607, looked up): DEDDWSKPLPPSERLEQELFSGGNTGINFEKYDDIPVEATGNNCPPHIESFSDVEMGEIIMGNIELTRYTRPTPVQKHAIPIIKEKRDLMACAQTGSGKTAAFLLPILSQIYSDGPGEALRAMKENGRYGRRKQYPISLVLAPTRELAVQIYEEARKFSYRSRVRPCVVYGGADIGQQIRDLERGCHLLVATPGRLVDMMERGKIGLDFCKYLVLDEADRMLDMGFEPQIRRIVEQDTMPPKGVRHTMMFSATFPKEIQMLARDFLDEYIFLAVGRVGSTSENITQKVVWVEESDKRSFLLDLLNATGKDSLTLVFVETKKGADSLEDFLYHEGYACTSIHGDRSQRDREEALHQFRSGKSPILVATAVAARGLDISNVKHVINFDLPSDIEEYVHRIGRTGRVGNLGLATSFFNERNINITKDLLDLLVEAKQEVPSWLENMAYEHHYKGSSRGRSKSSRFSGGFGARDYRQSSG

Block 1
Target: Replicase polyprotein 1ab, nsp13 helicase (rep, Severe acute respiratory syndrome coronavirus 2, UniProt P0DTD1)
Action: inhibitor
Tested at: 20 µM
Structure (SMILES)	inhibition [%]
Cc1nc(C#Cc2ccnc(Cl)c2)c(C)n1-c1ccc(OC(F)(F)F)cc1	99.6
O=C1C2CC3CC1CC(O)(C3)C2	1.83
Cn1c(=O)c(F)c(Nc2ccc(I)cc2F)c2c(=O)n(C[C@@H](O)CO)cnc21	10.4
COC(=O)Nc1nc2ccc(SC(C)C)cc2[nH]1	3.28
O=C(/C=C/c1ccc2ccc(C(F)(F)F)cc2n1)c1ccncc1	60.8
CN(C)C/C=C/C(=O)Nc1cccc(C(=O)Nc2cccc(Nc3ncc(Cl)c(-c4c[nH]c5ccccc45)n3)c2)c1	10.6
N#Cc1cc(F)cc(-c2nc(-c3ccc(F)cn3)no2)c1	10.8
N/C(=N\C(=O)c1nc(Cl)c(N)nc1N)NCc1ccccc1	2.7
CCC(NC(C)C)C(O)c1ccc(O)c(O)c1 (stereo not shown)	-2.75
Cc1cccc(C)c1-n1c(=O)c2cnc(Nc3ccc(N4CCN(C)CC4)cc3)nc2n2c3ccccc3nc12	34.6
CO[C@H]1C[C@H](O[C@H]2CC[C@@]3(C)[C@H](CC[C@@H]4[C@@H]3CC[C@]3(C)[C@@H](C5=CC(=O)OC5)[C@@H](OC(C)=O)C[C@]43O)C2)O[C@@H](C)[C@@H]1O	9.35
Cc1cc2c(cc1CC(=O)c1sccc1S(=O)(=O)Nc1onc(C)c1Cl)OCO2	5.12
COC(=O)[C@H](Cc1ccc([N+](=O)[O-])cc1)NC(=O)c1cccc2ccccc12	0.07
CNCC(O)c1ccc(OC(=O)C(C)(C)C)c(OC(=O)C(C)(C)C)c1 (stereo not shown)	8.53
Nc1ccc(-c2nc3ccc(-c4nc5ccc(N)cc5[nH]4)cc3[nH]2)cc1	24
CCOC(=O)CC(=O)N1CCSC1COc1ccccc1OC (stereo not shown)	-4.67
CC(=O)SCC(Cc1ccccc1)C(=O)NCC(=O)OCc1ccccc1 (stereo not shown)	2.95
NS(=O)(=O)c1cc(Cl)c(Cl)c(S(N)(=O)=O)c1	4.05
Cc1cc(-c2ncc(CC(=O)Nc3ccc(-c4cnccn4)cn3)cc2C)ccn1	6.26
CN1CCN(c2c(F)cc3c(=O)c(C(=O)O)cn4c3c2SCC4)CC1	6.8
C=CC1=C(C(=O)O)N2C(=O)[C@@H](NC(=O)/C(=N\OCC(=O)O)c3csc(N)n3)[C@H]2SC1	2.51
O=C(O)/C=C(/CC(=O)O)C(=O)O	0.44
CC(C)=CCC/C(C)=C/CC/C(C)=C/C=C/C(C)=C/C(=O)O	20.5
CNC(=N)NCCC[C@H](N)C(=O)O	0.68
COc1ccc2c(c1)C=C1Cn3c-2c(C2CCCCC2)c2ccc(cc23)C(=O)NS(=O)(=O)N(C)CCOCCN(C)C1=O	53.1

Block 2
Cell line: HEK-293T
Read-out: pseudovirus infection
Method: FDA-approved drug library screen
Organism: VSV pseudotyped with SARS-CoV-2 spike
Tested at: 10 µM
Time: 16 h
Relative to: vehicle-treated
SMILES	GFP-positive cells [%]
COC(=O)Nc1nc2ccc(C(=O)c3ccccc3)cc2[nH]1	17.4
Cc1cnc(NC(=O)C2=C(O)c3ccccc3S(=O)(=O)N2C)s1	79.9
C#CCN(C)Cc1ccccc1	92
C[C@H]1C[C@@H]2[C@H]([C@@H](O)C[C@@]3(C)[C@H]2CC[C@]3(O)C(=O)CO)[C@@]2(C)C=CC(=O)C=C12	96.2
O=C(CCCCC(=O)Nc1c(I)cc(I)c(C(=O)O)c1I)Nc1c(I)cc(I)c(C(=O)O)c1I	115

Block 3
Target: PABPC1L2, full length, GST fusion (mouse, UniProt A0ABA7IW68)
Method: RNAcompete
Form: RNA
Medium: in vitro
Tested at: 20 nM
Notes: 7-mer, probes averaged, single round
Relative to: mean of 7-mers
Reading: higher = stronger binding
Target sequence (chain): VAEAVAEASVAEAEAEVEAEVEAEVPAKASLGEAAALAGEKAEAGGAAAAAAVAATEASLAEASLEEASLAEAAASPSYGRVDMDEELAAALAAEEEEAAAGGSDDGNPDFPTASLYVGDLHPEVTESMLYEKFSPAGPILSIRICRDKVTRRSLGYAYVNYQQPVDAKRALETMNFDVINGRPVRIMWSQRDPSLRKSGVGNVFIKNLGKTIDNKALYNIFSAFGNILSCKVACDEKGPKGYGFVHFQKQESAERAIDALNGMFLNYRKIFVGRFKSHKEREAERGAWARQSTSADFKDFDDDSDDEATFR
Sequence	7-mer Z-score
GCGAAGG	-0.021
GUUGGUG	-0.226
GUUAGAA	0.311
GAGGCUG	0.0225
GCAUUGU	-0.306
AGAUGGU	-0.211
CGUUACG	-0.306
GGGUCGG	0.142

Block 4
Target: RING finger protein unkempt homolog, zinc fingers 1-6, GST-SBP tag (UNK, Homo sapiens, UniProt Q9C0B0, residues 30-357)
Method: RNA Bind-n-Seq
Form: RNA
Medium: in vitro
Tested at: not given
Notes: RNA with constant flanks, human and mouse sites, ends assumed
Relative to: input RNA pool
Reading: higher = stronger binding
Construct (chain): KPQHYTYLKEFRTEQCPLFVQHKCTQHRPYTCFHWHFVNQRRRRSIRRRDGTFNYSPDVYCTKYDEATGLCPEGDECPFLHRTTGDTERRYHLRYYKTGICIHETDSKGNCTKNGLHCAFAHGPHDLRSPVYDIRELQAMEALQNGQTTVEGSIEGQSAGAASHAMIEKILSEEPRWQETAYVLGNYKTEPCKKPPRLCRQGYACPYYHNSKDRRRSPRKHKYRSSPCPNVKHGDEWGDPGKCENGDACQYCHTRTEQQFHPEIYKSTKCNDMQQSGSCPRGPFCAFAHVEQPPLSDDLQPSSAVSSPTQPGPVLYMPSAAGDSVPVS
Sequence	bound/input enrichment
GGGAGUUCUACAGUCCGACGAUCUCAAGGCUGAGAAAAGAGAAUGAUCUCUUUGAUAACUACAUGCAGCAGGAUGCUCAUGAAUUUUUAAAUUAUUUGCUAAACACUAUUGCGGACAUCCUUCAGGAGGAGAAGAAACAGGAACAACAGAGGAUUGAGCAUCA	0.428 ratio
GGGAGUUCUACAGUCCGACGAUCUUCCAGGUUGGCCUGUGAGGAGCAGAGAGUGUUAGCAAGGUGUGCAAAGGAGGCUCUGUUCUCUCUGGUAAUAGGUGUUCUGGAGUGUUCCAGUAGGUUGGCUACUUGUCUUAGUUUCUACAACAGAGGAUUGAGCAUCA	0.719 ratio
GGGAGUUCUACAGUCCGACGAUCGUGGGCUUCUGGAGGGCCGCUUUCGCCUGUCCCACGUCCUGCAAAUGCAGUGCCUCUCGGAUCUGGUGCAGCGACCCUUCUCCUGGCAUCGUGGCAUUUCCGAGAUUGGAGCCUAACAGUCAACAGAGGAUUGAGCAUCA	0.0938 ratio
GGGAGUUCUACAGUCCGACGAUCGAGUAUGUGGCAAUCAAAACAAAGAAACGGAUCCUGUUGUACACCAUGAAUCCCAACAAAUUCAGAGCCUGCCAGUUUCUGAUCAAGUUUCAUGAAAGGAGGAAUGACAAGAUUAUUGUCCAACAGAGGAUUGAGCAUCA	0.217 ratio
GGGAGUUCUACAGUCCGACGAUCAAGCAUGAACGCAUUGAAAACGAUGUUGCCACCAUCCUGUCUCGCCGUAUUGCUGUUGAAUAUAGUGAUUCGGAAGAUGAUUCAGAAUUUGAUGAAGUAGAUUGGUUGGAGUAAGAAAAACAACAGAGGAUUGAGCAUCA	0.249 ratio
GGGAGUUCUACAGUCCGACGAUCGUGGAGCCGGUGGAUGCUUCCGGCACGGAGAAAGCGUUCGAGCCAGCCACCGGCCGAGUGAUUGCCACUUUCGCGUGUUCAGGAGAAAAGGAAGUAAACUUGGCCGUUGAGAAUGCAAAGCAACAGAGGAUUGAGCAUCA	0.102 ratio
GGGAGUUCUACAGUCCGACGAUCAUCAUCAAAUACAUCGUUAAUCGAGGAGAACAUAAAAAUGGUGUCCUAGAAGAGGCGAUAAUUGCAACAAUUCUUAAGGAGGUUUUGGAAGGUUUAGACUAUCUGCACAGAAACGGUCAGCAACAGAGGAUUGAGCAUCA	0.238 ratio
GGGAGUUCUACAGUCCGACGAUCCUCAUGGCUGCAAUGGAGAUUUUCUCAGCUCAACAACAGGAAGACAUUAAGGAUGAGGAUGAACGUGAAGCCAGAGAAAAUGUGAAGAGAGAGCAAGAUGAGGCCUAUCGCCUUUCCCUCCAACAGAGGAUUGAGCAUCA	0.123 ratio

Block 5
Target: Replicase polyprotein 1ab, main protease (rep, Severe acute respiratory syndrome coronavirus 2, UniProt P0DTD1)
Read-out: enzyme activity
Action: inhibitor
Tested at: 20 µM
Notes: hit confirmation
Compound	inhibition
O=[N+]([O-])c1ccc(O)c2ncccc12	55.3%
CC(C)Cc1sc(N)nc1-c1ccc(P(=O)(O)O)o1	17.5%
S=c1nn[nH]n1-c1ccccc1	110%
CC1=C(CC(=O)O)c2cc(F)ccc2/C1=C\c1ccc([S+](C)[O-])cc1 (stereo not shown)	57.3%

Further values, each from its own experiment
Method: RNA Bind-n-Seq
Form: RNA
Medium: in vitro
Tested at: 90 pmol
Notes: 4-mer, random 30-nt RNA, single round
Added: 3 µM iPr-DMDA-PatA, 2 mM ADP, 2 mM phosphate
Relative to: input library
Reading: higher = stronger binding
Sequence	target	4-mer enrichment [fold]
CUUC	Eukaryotic initiation factor 4A-I (EIF4A1, Homo sapiens, UniProt P60842, residues 1-406, full length assumed)	0.924
GGUA	ATP-dependent RNA helicase DDX3X, helicase core (DDX3X, Homo sapiens, UniProt O00571, residues 132-607)	0.961

For quick reference, copied from above (block 1):
Structure (SMILES)	inhibition [%]
COc1ccc2c(c1)C=C1Cn3c-2c(C2CCCCC2)c2ccc(cc23)C(=O)NS(=O)(=O)N(C)CCOCCN(C)C1=O	53.1
Cc1nc(C#Cc2ccnc(Cl)c2)c(C)n1-c1ccc(OC(F)(F)F)cc1	99.6
CC(C)=CCC/C(C)=C/CC/C(C)=C/C=C/C(C)=C/C(=O)O	20.5
Cc1cc2c(cc1CC(=O)c1sccc1S(=O)(=O)Nc1onc(C)c1Cl)OCO2	5.12
